# Assay results gathered from unrelated publications.
# Numbered parts are unrelated; each lists some results of a single study. Several values in a cell are separate wells, animals, samples, runs or records. Changes are numbered by the printed parent chain.

# Series 1
# Target: Muscarinic acetylcholine receptor M1 (CHRM1, Homo sapiens, UniProt P11229)
# Chain of UniProt P11229 (whole entry, looked up): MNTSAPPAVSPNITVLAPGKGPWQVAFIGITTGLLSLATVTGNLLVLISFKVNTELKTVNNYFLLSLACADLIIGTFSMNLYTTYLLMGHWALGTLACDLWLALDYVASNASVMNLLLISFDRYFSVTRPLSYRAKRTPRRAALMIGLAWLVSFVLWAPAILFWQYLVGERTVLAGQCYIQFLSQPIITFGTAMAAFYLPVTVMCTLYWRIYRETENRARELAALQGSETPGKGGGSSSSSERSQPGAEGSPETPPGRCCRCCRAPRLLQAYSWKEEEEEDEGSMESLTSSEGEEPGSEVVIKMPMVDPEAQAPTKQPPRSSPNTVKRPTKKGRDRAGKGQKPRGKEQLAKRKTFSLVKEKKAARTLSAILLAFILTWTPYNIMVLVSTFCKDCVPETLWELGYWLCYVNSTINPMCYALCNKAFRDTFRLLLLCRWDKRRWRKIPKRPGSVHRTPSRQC
# Observed: ligand displacement
# Concentration: 10 µM
Compound,inhibition [%]
CC1CCN(c2ccnc(NCc3cn(C)cn3)n2)CC1,17.2
c1ccc(N2CCN(Cc3nc4ccccc4[nH]3)CC2)nc1,-10.7
Cc1ncc(-c2cc(Cl)ccc2F)cc1-n1c(=O)n(CC(N)=O)c2ccccc21,-1.17
Cn1nc(C(=O)NCc2ccc(C(=O)O)cc2)cc1-c1ccc2[nH]ccc2c1,-23.3
NC(=O)c1ccc2nc(-c3ccc(C4(N)CCC4)cc3)c(-c3ccccc3)n2n1,71.9
O=S(=O)(NC1CCC(c2cc(F)ccc2F)(S(=O)(=O)c2ccc(Cl)cc2)CC1)C(F)(F)F (stereo not drawn),-5.38

# Series 2
# Target: Leukocyte tyrosine kinase receptor (LTK, Homo sapiens, UniProt P29376)
# Chain of UniProt P29376 (whole entry, looked up): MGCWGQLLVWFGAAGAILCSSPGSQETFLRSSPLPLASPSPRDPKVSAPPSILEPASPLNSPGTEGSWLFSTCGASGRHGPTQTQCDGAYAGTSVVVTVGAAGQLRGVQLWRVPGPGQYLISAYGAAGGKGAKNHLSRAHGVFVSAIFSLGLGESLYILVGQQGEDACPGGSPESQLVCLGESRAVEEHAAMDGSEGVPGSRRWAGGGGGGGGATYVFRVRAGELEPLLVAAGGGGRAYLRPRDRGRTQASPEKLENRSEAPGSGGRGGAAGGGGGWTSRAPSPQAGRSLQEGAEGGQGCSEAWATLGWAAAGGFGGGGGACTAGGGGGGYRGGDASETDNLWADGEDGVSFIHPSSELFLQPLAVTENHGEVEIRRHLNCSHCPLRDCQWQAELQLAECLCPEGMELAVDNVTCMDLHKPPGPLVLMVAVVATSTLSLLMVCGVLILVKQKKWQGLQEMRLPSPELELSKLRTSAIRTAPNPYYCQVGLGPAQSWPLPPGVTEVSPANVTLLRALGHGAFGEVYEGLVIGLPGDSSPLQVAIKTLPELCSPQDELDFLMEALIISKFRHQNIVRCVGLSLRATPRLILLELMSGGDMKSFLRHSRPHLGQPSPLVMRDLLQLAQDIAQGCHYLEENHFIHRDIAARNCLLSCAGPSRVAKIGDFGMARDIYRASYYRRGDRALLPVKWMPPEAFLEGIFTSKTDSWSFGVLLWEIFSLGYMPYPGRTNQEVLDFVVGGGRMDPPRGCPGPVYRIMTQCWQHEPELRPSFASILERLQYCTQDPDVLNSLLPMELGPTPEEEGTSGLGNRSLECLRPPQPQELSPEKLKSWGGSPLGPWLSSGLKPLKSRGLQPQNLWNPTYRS
# Observed: enzyme activity
# Mode: inhibitor
# Method: radiometric
# Concentration: 0.5 µM
SMILES,remaining activity [%]
CCN1/C(=C/C(C)=O)Sc2ccc(OC)cc21,87.1
CC(=O)O/N=C1/C(c2c(O)[nH]c3cc(Br)ccc23)=Nc2ccccc21,83.3
COc1cc2ncc(-c3ccccc3)nc2cc1OC,97.9
CO[C@H]1[C@@H](OC)C[C@H](C)[C@@H](OC)C2=CC(=O)C=C(NC(=O)/C(C)=C/C=C\[C@H](OC)[C@@H](OC(N)=O)/C(C)=C/[C@@H]1C)C2=O,98.5
CC(C)c1nn(-c2c(Cl)cccc2Cl)c2nc(Cc3ccc(OCCO)cc3)[nH]c(=O)c12,87.4
COc1ccc2c(c[n+](C)c3c4cc5c(cc4ccc23)OCO5)c1OC,95.9
CN(C)CCCn1cc(C2=C(c3c[nH]c4ccccc34)C(=O)NC2=O)c2ccccc21,99.5

# Series 3
# Target: CCND1, cyclin fold, Cln2 fusion (human)
# Method: yeast growth competition, sequencing
# Sample: yeast
# Notes: strong parent motif
# Reference: not given
# Reading: higher = stronger binding
# Parent: viral docking peptide; YKVKRRLVFGADD
Substitution,normalised enrichment score
YKVKRRLVFNADD [G10N],2.02
YKVPRRLVFGADD [K4P],0.928
YWVKRRLVFGADD [K2W],0.265
YKVKRRLVFQADD [G10Q],1.51
YKVKRRLVFGYDD [A11Y],1.62
YKMKRRLVFGADD [V3M],0.274
YKVARRLVFGADD [K4A],3.47
YKVKFRLVFGADD [R5F],0.32

# Series 4
# SMILES: CC[C@@H](C)c1nc2cc(Nc3ccnc4ccc(S(=O)(=O)C(C)C)cc34)ccc2s1.Cl
cell line,observed,method,concentration,with,viability
HT-29,necroptosis protection,CCK-8,5 µM,TNF-α SMAC mimetic zVAD,78.5% and 97.5% and 93.5% and 86.5%
L929 RIPK3 knockout,,,3.125 µM,zVAD,102% and 111% and 108% and 104% and 98.8%
L929 RIPK3 knockout,,,50 µM,,38.7% and 38.2% and 45.8% and 46.8%
L929 RIPK3 knockout,,,1.563 µM,zVAD,103% and 93.8% and 104% and 99.8% and 98.7%
HT-29,necroptosis protection,CCK-8,0.078 µM,TNF-α SMAC mimetic zVAD,20.2% and 20.6% and 12.7% and 19.5% and 21.5%
L929 RIPK3 knockout,,,100 µM,zVAD,47.4% and 51% and 53.1% and 37.3% and 39.7%
L929 RIPK3 knockout,,,12.5 µM,zVAD,107% and 94.7% and 108% and 95.6%
L929,,CCK-8,100 µM,,36.7% and 46.2% and 36.9% and 37.3%
L929,,CCK-8,12.5 µM,zVAD,113% and 112% and 107% and 109%

# Repeated from above (series 3):
Substitution,normalised enrichment score
YKVKRRLVFQADD [G10Q],1.51
YKVKRRLVFGYDD [A11Y],1.62
YKMKRRLVFGADD [V3M],0.274
